# Experimental data from different studies.
# Protocols differ between the studies behind these lines. ± gives the spread as reported.
Compound,test,system,conditions,scale,endpoint,result
Cc1ncc2n1-c1ccc(Cl)cc1C(c1ccccc1F)=NC2,food-maintained responding,rhesus monkey,"intramuscular, 1.0 mg/kg, 30 min, acute dependence model",relative to: control,response rate,< 25%
C[C@]12CC[C@H]3[C@@H](CC=C4CC(O)CC[C@@]43CO)[C@@H]1CCC2O (stereo partly drawn),measured: F4/80,"rat, GAN diet-induced MASH, white adipose tissue",dose not given,relative to: vehicle,crown-like structures,decreased
COc1ccc2[nH]cc(CCN)c2c1,"binding, equilibrium dialysis LC-MS",,"5 µM, thermostabilized A2AR-BRIL construct","relative to: no-protein control, direction not given",z-scored log2 fold change,2.07
CC[C@@H]1CN2CCc3c([nH]c4cccc(O)c34)[C@@H]2C[C@@H]1/C(=C\OC)C(=O)OC,,human liver S9,"10 min, S9 0.2 mg/mL",,Vmax,0.0931 nmol/min/mg
O=C(O)c1cn(Cc2ccc(F)cc2)c2ccccc12,"glucuronidation, substrate",human liver microsomes,"60 min, 37 °C, with: UDPGA",,Vmax,1.11 ± 0.17 nmol/min/mg
O=C1Nc2ccc(Cl)cc2C(c2ccccc2Cl)=NC1O (stereo not drawn),"food self-administration decrease, progressive-ratio schedule",rhesus monkey,intravenous,relative to: vehicle,minimum effective dose,3 mg/kg
COc1cc(CCN)ccc1O,"binding, equilibrium dialysis LC-MS",,"5 µM, thermostabilized A2AR-BRIL construct","relative to: no-protein control, direction not given",z-scored log2 fold change,0.511
CCCC(C(=O)c1ccc2c(c1)OCO2)N1CCCC1.Cl (racemic),HPLC-ECD,"rat, striatum postmortem","dose not given, 40 min",,serotonin level,decreased
CN1CC[C@]23c4c5ccc(O)c4O[C@H]2[C@@H](O)C=C[C@H]3[C@H]1C5,hot water tail withdrawal test,normal Sprague-Dawley rats,"ip, 3 mg/kg",,peak increase in tail withdrawal latency,3.6 ± 0.5 s
